# Assay results gathered from unrelated publications.
# Protocols differ between the studies behind these lines. ± marks the error that the study gave.
Compound,test,system,conditions,scale,measurement,value
O=C(NCCCCCn1ccc2ccc(F)cc21)Oc1cccc(F)c1,,porcine liver S9 fraction without NADPH,"20 µM, 0.5 h, 37 °C",,remaining parent compound,62 ± 5%
CC[C@H](C)[C@@H]1NC(=O)[C@H](CCCCN)NC(=O)[C@H](CCCCN)NC(=O)[C@H](C)NC(=O)[C@H](C(C)C)NC(=O)[C@H](C)NC(=O)[C@H](CC(C)C)NC(=O)[C@H](CC(C)C)NC(=O)[C@H](C)NC(=O)[C@H](CCCCN)NC(=O)[C@H](CC(C)C)NC(=O)[C@H](CC(N)=O)NC(=O)[C@H](CC(C)C)NC(=O)[C@@H](N)CSSC[C@@H](C(N)=O)NC(=O)[C@H](CC(C)C)NC1=O,RP-HPLC,10% FBS in RPMI-1640,"50 µM, 24 h, 37 °C",,remaining peptide,< 40%
CC[C@H](C)[C@@H]1NC(=O)[C@H](CCCCN)NC(=O)[C@H](CCCCN)NC(=O)[C@H](Cc2ccc(O)cc2)NC(=O)[C@H](CC(C)C)NC(=O)[C@@H]2CCCN2C(=O)[C@H](C)NC(=O)CNC(=O)CNC(=O)[C@H](CO)NC(=O)CNC(=O)CNC(=O)[C@H](CO)NC(=O)[C@H](CCC(=O)O)NC(=O)[C@H](CC(C)C)NC(=O)[C@H](CC(C)C)NC(=O)[C@H](CCCCN)NC(=O)[C@H](CCCCN)NC(=O)[C@H]([C@@H](C)CC)NC(=O)[C@H]([C@@H](C)CC)NC(=O)[C@H](CCCCN)NC(=O)[C@H](CCCCN)NC(=O)[C@H](Cc2ccc(O)cc2)NC(=O)[C@H](CC(C)C)NC(=O)[C@@H]2CCCN2C(=O)[C@H](C)NC(=O)CNC(=O)[C@@H]2CSSC[C@H](NC(=O)[C@H](CC(C)C)NC(=O)[C@H](CCCCN)NC(=O)[C@H](CCCCN)NC(=O)[C@H]([C@@H](C)CC)NC1=O)C(=O)N[C@@H](CCC(=O)O)C(=O)N[C@@H](CC(N)=O)C(=O)NCC(=O)N2,,25% human serum,"50 µM, 24 h",reference: 0 h control,remaining intact peptide,73.7 ± 6.9%
CC[C@H](C)[C@H](NC(=O)[C@@H](Cc1c[nH]c2ccccc12)NC(=O)[C@@H]1CCCN1C(=O)[C@H](CCCCN)NC(=O)[C@H](CCCCN)NC(=O)CCNC(=O)CCNC(=O)CN1CCN(CC(=O)O)CCN(CC(=O)O)CCN(CC(=O)O)CC1)C(=O)N[C@@H](C[Si](C)(C)C)C(=O)O [gallium-68 labelled],,human blood plasma,30 min,,remaining intact peptide,5%
CSCC[C@H](NC(=O)CNC(=O)[C@H](CC(=O)O)NC(=O)[C@@H](NC(=O)[C@@H](NC(=O)[C@@H](NC(=O)CNC(=O)[C@H](CCC(=O)O)NC(=O)[C@H](CCSC)NC(=O)[C@H](CC(=O)O)NC(=O)[C@H](C)NC(=O)[C@H](C)NC(=O)[C@@H](NC(=O)[C@H](CO)NC(=O)[C@@H](N)CC(C)C)[C@@H](C)O)C(C)C)C(C)C)[C@@H](C)O)C(=O)N[C@@H](C)C(=O)N[C@@H](CO)C(=O)NCC(=O)N[C@@H](CC(C)C)C(=O)N[C@@H](CC(=O)O)C(=O)N[C@@H](CCCCN)C(=O)N[C@@H](CC(=O)O)C(=O)N[C@@H](Cc1ccc(O)cc1)C(=O)N[C@@H](CC(C)C)C(=O)N[C@@H](CCCCN)C(=O)N1CCC[C@H]1C(=O)N[C@@H](CC(=O)O)C(=O)N[C@@H](CC(=O)O)C(=O)O,LC-MS/MS,mouse serum,"10 µg/mL, 24 h, 37 °C",,remaining compound,68%
CC[C@H](C)[C@@H]1NC(=O)[C@H](CCCCN)NC(=O)[C@H](CCCCN)NC(=O)[C@H](Cc2ccc(O)cc2)NC(=O)[C@H](CC(C)C)NC(=O)[C@@H]2CCCN2C(=O)[C@H](C)NC(=O)CNC(=O)CNC(=O)[C@H](CO)NC(=O)CNC(=O)CNC(=O)[C@H](CC(N)=O)NC(=O)[C@H](CCC(=O)O)NC(=O)[C@H](CC(C)C)NC(=O)[C@H](CC(C)C)NC(=O)[C@H](CCCCN)NC(=O)[C@H](CCCCN)NC(=O)[C@H]([C@@H](C)CC)NC(=O)[C@H]([C@@H](C)CC)NC(=O)[C@H](CCCCN)NC(=O)[C@H](CCCCN)NC(=O)[C@H](Cc2ccc(O)cc2)NC(=O)[C@H](CC(C)C)NC(=O)[C@@H]2CCCN2C(=O)[C@H](C)NC(=O)CNC(=O)CNC(=O)[C@H](CO)NC(=O)CNC(=O)CNC(=O)[C@H](CC(N)=O)NC(=O)[C@H](CCC(=O)O)NC(=O)[C@H](CC(C)C)NC(=O)[C@H](CC(C)C)NC(=O)[C@H](CCCCN)NC(=O)[C@H](CCCCN)NC(=O)[C@H]([C@@H](C)CC)NC1=O,,25% human serum,"50 µM, 24 h",reference: 0 h control,remaining intact peptide,24 ± 0.3%
CC[C@H](C)[C@H](NC(=O)[C@H](CCC(N)=O)NC(=O)[C@H](CO)NC(=O)[C@H](CC(C)(C)C)NC(=O)[C@H](CCC(=O)O)NC(=O)[C@H](CCC(=O)O)NC(=O)[C@H](CC(=O)O)NC(=O)[C@@H]1CCSCc2cccc(c2)CSCC[C@H](NC(=O)[C@H](C)NC(=O)[C@H](CC(=O)O)NC(=O)[C@H](CC(=O)O)NC(=O)[C@H](CCCNC(=N)N)NC(=O)CCNC(=O)CCNC(=O)CCCC[C@@H]2SC[C@@H]3NC(=O)N[C@@H]32)C(=O)N[C@@H](Cc2ccc3ccccc3c2)C(=O)N[C@@H](CC(=O)O)C(=O)N[C@@H]([C@@H](C)CC)C(=O)N[C@@H]([C@@H](C)CC)C(=O)N1)C(=O)N[C@@H](CCC(N)=O)C(=O)N[C@@H](CCC(=O)O)C(=O)N[C@@H](Cc1c[nH]c2ccccc12)C(N)=O,,HeLa cell lysate,"150 µM, 24 h, pH 8, 37 °C",reference: time zero,remaining intact peptide,59%
N[C@@H](Cc1ccc(O)cc1)C(=O)N1CCC[C@H]1C(=O)NCC(=O)NCC(=O)O,"diketopiperazine formation, ESI-MS",1-propanol,"5 µM, 90 min, 70 °C, 0.5% acetic acid",reference: initial signal,remaining peptide,55%
CC[C@H](C)[C@@H]1NC(=O)[C@H](CCCCN)NC(=O)[C@H](CCCCN)NC(=O)[C@H](Cc2ccc(O)cc2)NC(=O)[C@H](CC(C)C)NC(=O)[C@@H]2CCCN2C(=O)[C@H](C)NC(=O)CNC(=O)CNC(=O)[C@H](CO)NC(=O)CNC(=O)CNC(=O)[C@H](CO)NC(=O)[C@H](CCC(=O)O)NC(=O)[C@H](CC(C)C)NC(=O)[C@H](CC(C)C)NC(=O)[C@H](CCCCN)NC(=O)[C@H](CCCCN)NC(=O)[C@H]([C@@H](C)CC)NC(=O)[C@H]([C@@H](C)CC)NC(=O)[C@H](CCCCN)NC(=O)[C@H](CCCCN)NC(=O)[C@H](Cc2ccc(O)cc2)NC(=O)[C@H](CC(C)C)NC(=O)[C@@H]2CCCN2C(=O)[C@H](C)NC(=O)CNC(=O)[C@@H]2CSSC[C@H](NC(=O)[C@H](CC(C)C)NC(=O)[C@H](CCCCN)NC(=O)[C@H](CCCCN)NC(=O)[C@H]([C@@H](C)CC)NC1=O)C(=O)N[C@@H](CCC(N)=O)C(=O)N[C@@H](CC(N)=O)C(=O)NCC(=O)N2,,25% human serum,"50 µM, 24 h",reference: 0 h control,remaining intact peptide,22.5 ± 3.5%
CC[C@H](C)[C@@H]1NC(=O)[C@@H](NC(=O)[C@H](CO)NC(=O)CNC(=O)CN)CSSC[C@@H](C(=O)NCC(=O)NCC(=O)N[C@@H](CO)C(=O)O)NC(=O)[C@H](CCSC)NC(=O)[C@H](CC(C)C)NC(=O)[C@H](CCCNC(=N)N)NC(=O)CNC(=O)CNC(=O)[C@H](CC(=O)O)NC1=O,LC-MS,chymotrypsin in buffer,"2 h, 37 °C, together with: chymotrypsin 100 µg/mL",,remaining intact peptide,< 20%

# A few entries again:
Compound,test,system,conditions,scale,measurement,value
CC[C@H](C)[C@@H]1NC(=O)[C@H](CCCCN)NC(=O)[C@H](CCCCN)NC(=O)[C@H](Cc2ccc(O)cc2)NC(=O)[C@H](CC(C)C)NC(=O)[C@@H]2CCCN2C(=O)[C@H](C)NC(=O)CNC(=O)CNC(=O)[C@H](CO)NC(=O)CNC(=O)CNC(=O)[C@H](CO)NC(=O)[C@H](CCC(=O)O)NC(=O)[C@H](CC(C)C)NC(=O)[C@H](CC(C)C)NC(=O)[C@H](CCCCN)NC(=O)[C@H](CCCCN)NC(=O)[C@H]([C@@H](C)CC)NC(=O)[C@H]([C@@H](C)CC)NC(=O)[C@H](CCCCN)NC(=O)[C@H](CCCCN)NC(=O)[C@H](Cc2ccc(O)cc2)NC(=O)[C@H](CC(C)C)NC(=O)[C@@H]2CCCN2C(=O)[C@H](C)NC(=O)CNC(=O)[C@@H]2CSSC[C@H](NC(=O)[C@H](CC(C)C)NC(=O)[C@H](CCCCN)NC(=O)[C@H](CCCCN)NC(=O)[C@H]([C@@H](C)CC)NC1=O)C(=O)N[C@@H](CCC(=O)O)C(=O)N[C@@H](CC(N)=O)C(=O)NCC(=O)N2,,25% human serum,"50 µM, 24 h",reference: 0 h control,remaining intact peptide,73.7 ± 6.9%
